Measurements gathered from unrelated publications.
Numbers after ± are the reported error.

Compound | test | system | setting | scale | measurement | value
CCCCN1C(=O)c2cccc3c(NCCCCCN4CCOCC4)ccc(c23)C1=O |  | dichloromethane |  |  | absorption maximum | 429 nm
CCCC[C@H](NC(=O)COCCOCCNC(=O)CN1CCN(CC(=O)O)CCN(CC(=O)O)CC1)C(=O)N[C@H]1CC(=O)NCCCC[C@@H](C(N)=O)NC(=O)[C@H](Cc2c[nH]c3ccccc23)NC(=O)[C@H](CCCNC(=N)N)NC(=O)[C@@H](Cc2ccccc2)NC(=O)[C@H](Cc2c[nH]cn2)NC1=O [fluorine-18 labelled] |  | C57 mice, B16/F10 melanoma, urine | intravenous, 0.37 MBq, 2 h |  | urinary excretion | 83.4 ± 2.37%
Cc1n[nH]c(C)c1CCCOc1cc(C(=O)NCCCCC(NC(=O)CN2CCN(CC(=O)[O-])CCN(CC(=O)[O-])CCN(CC(=O)[O-])CC2)C(=O)NCC2CCC(C(=O)NC(Cc3ccc4ccccc4c3)C(=O)NCCCCC(NC(=O)NC(CCC(=O)O)C(=O)O)C(=O)O)CC2)ccc1F.[68Ga+3] (centres unmarked) | PET/CT | mice with PC-3 tumours | 2 h post-injection |  | tumour uptake | 3.17 ± 0.82 %ID/g
CCCCN1C(=O)c2cccc3c(NCCCCCCN4CCOCC4)ccc(c23)C1=O |  | dichloromethane |  |  | fluorescence lifetime | 10.6 ns
[123I]c1ccc2nc(-c3ccc(-n4ccnn4)nc3)cn2c1 |  | male Wistar rat, bone | intravenous, 4 MBq, 1 h |  | tracer uptake | 0.065 %ID/g
O=C(Nc1cnccc1-c1ccc([18F])nc1)c1ccnc(NC(=O)C2CC2)c1 |  | mice, transgenic, GSK-3β, early-stage, blood | intravenous, dose not given, 120 min |  | SUV | 0.095
COc1cccc(OC)c1-c1cc(C(=O)NC2(C(=O)O)C3CC4CC(C3)CC2C4)nn1-c1ccc(C(=O)N(C)CCOCCN(C)C(=O)[C@H](CCCCNC(=O)[C@H](CC(C)C)NC(=O)C2OC2C(=O)O)NC(=O)CN2CCN(CC(=O)[O-])CCN(CC(=O)[O-])CCN(CC(=O)[O-])CC2)cc1C(C)C.[177Lu+3] (mixture of isomers) |  | mouse, HT-29 xenograft, spleen | 72 h post injection |  | tissue uptake | 0.8 %ID/g
[2H]C1([2H])CC[C@@H](C[C@@H](C#N)NC(=O)[C@@H]2[C@@H]3[C@H](CN2C(=O)[C@@H](NC(=O)C(F)F)C(C)(C)C)C3(C)C)C(=O)N1 |  | mouse liver microsomes | microsomes 0.5 mg/mL |  | intrinsic clearance | 63.8 µL/min/mg
CCCCCCCCCCCCCCCOC(=O)/C=C/c1cc(O)c(O)c(OC)c1 |  | red blood cells | concentration not given | relative to: Triton X-100 | hemolysis | 0.4%
CN1CCC[C@]1(C)/C=C/S(=O)(=O)NC(=O)Nc1c2c(cc3c1CCC3)CC=C2 |  | human, plasma | oral, 12.5 mg twice daily of parent drug, day 1, metabolite of dosed drug |  | AUC(0-tau) | 35800 ng·h/mL
CC(C)(O)c1ncc([S@](N)(=O)=NC(=O)Nc2c3c(cc4c2CCC4)CCC3)s1 | refers to: Psychiatric disorders | healthy human volunteers | oral, 200 mg once daily, 14 days, spray-dried dispersion |  | subjects with adverse events | 14%
Cc1nc(N)nc2c1C(=O)N[C@@H](c1ccc(F)cc1-c1cccc(O[11CH3])n1)C2 | ex vivo biodistribution | mice, MDA-MB-231 subcutaneous xenograft, urine | 60 min post-injection, baseline, vehicle pre-treatment |  | tracer uptake | 0.5 ± 0.1 %ID
COC1C=COC2(C)Oc3c(C)c(O)c4c(c3C2=O)C2=NC3(CCN(CC(C)C)CC3)NC2=C(NC(=O)C(C)=CC=CC(C)C(O)C(C)C(O)C(C)C(OC(=O)Nc2cscn2)C1C)C4=O (centres unmarked) |  | CD-1 mouse female, plasma | intravenous, 5 mg/kg |  | clearance | 2.47 mL/min/kg
CC[C@H](C)[C@@H]1NC(=O)[C@H](Cc2ccc(O)cc2)NC(=O)CCCSC[C@@H](C(=O)N(CC(=O)N[C@@H](CC(C)C)C(=O)NCC(N)=O)Cc2ccc(F)cc2)NC(=O)[C@H](CC(N)=O)NC(=O)[C@H](CCC(N)=O)NC1=O |  | healthy human females, plasma | intranasal, 100 µg single dose |  | Cmax | 0.051 ng/mL
CNC(=O)C1CCCN(C(=O)C2CC3CCC2N3C(=O)[C@@H]2C[C@@H](O)CN2C(=O)NCc2cccc(Cl)c2F)C1 (mixture of isomers) |  | rat liver microsomes |  |  | intrinsic clearance | 4.4 µL/min/mg
CN(O)C(=O)CCC(=O)NCCCN(CCCCN(CCCNC(=O)CCC(=O)N(C)O)C(=O)CCC(=O)N(C)O)C(=O)CCC(=O)N(C)O.[89Zr] |  | mouse, kidney | 24 h |  | tracer uptake | 0.8 %ID/g
Cc1cc(F)ccc1-c1cc(N2C[C@H]3COC(O)CN3C[C@H]2CO)ncc1N(C)C(=O)C(C)(C)c1cc(C(F)(F)F)cc(C(F)(F)F)c1 (some centres unmarked) |  | human, plasma | oral, 120 mg, geometric mean |  | AUC extrapolated | 2.55%
CCCC[C@H](OC(C)=O)c1ccccc1C(=O)O |  | beagle dogs, both sexes, whole blood | intravenous, 0.5 mg/kg single dose |  | MRT(0-inf) | 1.7 ± 2.4 h
Cc1c(Cc2ccc(Cl)c(OC(C)C(=O)O)c2)c2ccc(C(=O)NC(C)c3ccc(C(C)(C)C)cc3)cc2n1CC1CCC1 (centres unmarked) | metabolic stability | mouse, liver microsomes |  |  | half-life | > 1 h

Compound | test | system | setting | scale | measurement | value
CCN(CC)c1ccc2cc(C(=O)ON3C(=O)CCC3=O)c(=O)oc2c1 | chemical stability, HPLC-MS | borate buffered saline | pH 10.2, no N-acetyl-lysine |  | degradation rate constant | 8.4 h⁻¹
CCCCN1C(=O)c2cccc3c(NCCN4CCOCC4)ccc(c23)C1=O |  | water | pH 6.0 |  | absorption maximum | 441 nm
CN[C@H](CC(C)C)C(=O)N[C@H]1C(=O)N[C@@H](CC(N)=O)C(=O)N[C@H]2C(=N)N[C@H]3C(=O)N[C@H](C(=O)N[C@H](C(=O)NCCC[N+](C)(C)C)c4cc(O)cc(O)c4-c4cc3ccc4O)[C@H](O)c3ccc(c(Cl)c3)Oc3cc2cc(c3O[C@@H]2O[C@H](CO)[C@@H](O)[C@H](O)[C@H]2O[C@H]2C[C@](C)(NCc3ccc(-c4ccc(Cl)cc4)cc3)[C@H](O)[C@H](C)O2)Oc2ccc(cc2Cl)[C@H]1O |  | mouse | intravenous, 50 mg/kg |  | clearance | 0.6 mL/min/kg
O=C(Nc1cnccc1-c1ccc([18F])cc1)c1ccnc(NC(=O)C2CC2)c1 | ex vivo gamma counting | GSK-3β transgenic mice, late-stage, blood | intravenous, 120 min, mean, P-gp inhibitor pretreatment, with: tariquidar 15 mg/kg iv |  | SUV | 0.71
CC(C)(F)CC(NC(c1ccc(-c2ccc(S(C)(=O)=O)cc2)cc1)C(F)(F)F)C(=O)NCC#CBr (centres unmarked) |  | PBS | 100 µM, 23 h, pH 7.45, 37 °C, with: GSH 5 mM |  | GSH adduct formation | 11%
N=C(N)NCCC[C@@H]1NC(=O)[C@H](CCCNC(=N)N)NC(=O)[C@H](CCCNC(=N)N)NC(=O)[C@H](CCCNC(=N)N)NC(=O)[C@H](Cc2ccc3ccccc3c2)NC(=O)[C@H](Cc2ccccc2)NC(=O)CCSSC[C@@H](C(=O)N[C@@H](CCCCNC(=S)Nc2ccc3c(c2)C(=O)OC32c3ccc(O)cc3Oc3cc(O)ccc32)C(N)=O)NC1=O |  | human serum | 6 h, 37 °C |  | degradation | 48%
CN1CCC[C@]1(C)/C=C/S(=O)(=O)NC(=O)Nc1c2c(cc3c1C(O)CC3)CCC2 (some centres unmarked) |  | human, plasma | oral, 12.5 mg twice daily of parent drug, day 14, metabolite of dosed drug |  | AUC(0-tau) | 31600 ng·h/mL
COc1cccc(OC)c1-c1cc(C(=O)NC2(C(=O)O)C3CC4CC(C3)CC2C4)nn1-c1ccc(C(=O)NCCNC(=O)[C@H](CCCCNC(=O)[C@H](CC(C)C)NC(=O)C2OC2C(=O)O)NC(=O)CN2CCN(CC(=O)[O-])CCN(CC(=O)[O-])CCN(CC(=O)[O-])CC2)cc1C(C)C.[177Lu+3] (mixture of isomers) |  | mouse, HT-29 xenograft | 72 h post injection, biodistribution | relative to: tumour over liver uptake | tumour-to-liver ratio | 4.53
CC(C)[C@H](NC(=O)[C@H](Cc1c[nH]c2ccccc12)NC(=O)[C@H](CCCNC(=N)N)NC(=O)[C@H](CCCNC(=N)N)NC(=O)[C@@H](NC(=O)[C@@H](NC(=O)[C@H](CCCNC(=N)N)NC(=O)[C@@H](NC(=O)[C@@H](NC(=O)[C@H](CCCNC(=N)N)NC(=O)[C@H](CCCNC(=N)N)NC(=O)[C@@H](NC(=O)[C@H](Cc1c[nH]c2ccccc12)NC(=O)[C@H](CCCNC(=N)N)NC(=O)[C@H](CCCNC(=N)N)NC(=O)[C@@H](NC(=O)[C@H](CCCNC(=N)N)NC(=O)[C@H](CCCNC(=N)N)NC(=O)[C@@H](NC(=O)[C@H](Cc1c[nH]c2ccccc12)NC(=O)[C@H](CCCNC(=N)N)NC(=O)[C@@H](N)CCCNC(=N)N)C(C)C)C(C)C)C(C)C)C(C)C)C(C)C)C(C)C)C(C)C)C(=O)N[C@@H](CCCNC(=N)N)C(=O)N[C@@H](CCCNC(=N)N)C(=O)O |  | CD-1 mice | intravenous, 15 mg/kg, 6-24 h |  | urinary creatinine excretion | 11.2 µg/day/g body weight
Cc1nc(N)nc2c1C(=O)N[C@@H](c1ccc(F)cc1-c1cccc(OCC[18F])n1)C2 | ex vivo biodistribution | C57BL/6 mice, bone | intravenous, 1 MBq, 30 min |  | SUV | 0.55 ± 0.04
C=C(NC(=O)c1csc(-c2nc3c(cc2O)-c2nc(cs2)C(=O)NC(C(C)O)C(=O)NC(=C(C)OC)c2nc(cs2)C(=O)NC2c4nc(cs4)C(=O)NC(COC(=O)c4c5c6c(cccc6n4O)COC(=O)C(OC4CC(C)(O)C(N(C)C)C(C)O4)C2OC5)c2nc-3cs2)n1)C(N)=O (centres unmarked) |  | cynomolgus monkey, both sexes, plasma | intravenous infusion, 3 mg/kg single dose |  | MRT(0-last) | 1.48 h
Cc1[nH]c(=O)c(CNC(=O)c2cc(Cl)c3c(c2C)O[C@@](C)([C@H]2CC[C@H](N(C)C)CC2)O3)c(C)c1O |  | human, plasma | oral, 200 mg |  | share of plasma radioactivity | 14.9%
CC(C)=CCC1=C([O-])C(=O)c2ccccc2C1=O.CC(C)=CCC1=C([O-])C(=O)c2ccccc2C1=O.Cc1cc2cccnc2c2ncccc12.O.[Cu+2] | cyclic voltammetry | dichloromethane | 0.1 mM, with: 0.1 M Bu4NPF6 | relative to: Ag/AgCl in saturated KOH | cathodic peak potential | -1.33 V
CC(C)C[C@H](NC(=O)[C@H](CCCNC(=N)N)NC(=O)[C@H](Cc1ccccc1)NC(=O)[C@H](Cc1ccccc1)NC(=O)[C@@H](NC(=O)[C@H](COP(=O)(O)O)NC(=O)[C@@H](N)COP(=O)(O)O)[C@@H](C)O)C(=O)N[C@@H](Cc1ccccc1)C(=O)N[C@@H](CC(N)=O)C(=O)N[C@@H](CCCNC(=N)N)C(=O)N[C@@H](C)C(=O)N[C@@H](CCCCN)C(=O)N[C@@H](CCCNC(=N)N)C(=O)N[C@@H](Cc1c[nH]cn1)C(=O)N[C@@H](Cc1c[nH]cn1)C(=O)NCC(=O)N[C@@H](Cc1ccc(O)cc1)C(=O)N[C@@H](CCCCN)C(=O)N[C@@H](CCCNC(=N)N)C(=O)N[C@@H](CCCCN)C(=O)N[C@@H](Cc1ccccc1)C(=O)N[C@@H](Cc1c[nH]cn1)C(=O)O | HPLC-UV | human saliva | 1 h, 37 °C, with: initial 1 mg/mL |  | peptide concentration | 0.979 mg/mL
C/C(N)=N/C(=N\S(=O)(=O)c1ccc(C(F)(F)F)cc1)N1C[C@H](c2ccccc2)C(c2ccc(Cl)cc2)=N1 |  | male C57BL/6 mouse, lung | intravenous, 10 mg/kg |  | Tmax | 0.25 h
CN1CCC[C@]1(C)/C=C/S(=O)(=O)NC(=O)Nc1c2c(cc3c1CC(O)C3)CCC2 (some centres unmarked) |  | human, plasma | oral, 12.5 mg twice daily of parent drug, day 14, metabolite of dosed drug |  | AUC(0-tau) | 16600 ng·h/mL
C=CC(=O)Nc1cc(Nc2nccc(-c3c[nH]c4ccccc34)n2)c(OC)cc1N(C)CCN(C)C |  | human plasma | 5 h, storage stability, low QC sample |  | recovery | 91.3%
CCCCN1C(=O)c2cccc3c(NCCCCCCCCCCN4CCOCC4)ccc(c23)C1=O |  | ethylene glycol |  |  | absorption maximum | 449 nm
O=C([O-])CN1CCN(CC(=O)[O-])CCN(CC(CCCc2ccccc2[N+](=O)[O-])N(CC(=O)[O-])CC(=O)[O-])CC1.[177Lu+3] (centres unmarked) | TLC | human serum | 279 h, pH 7, 37 °C |  | intact radiolabelled complex | 99.8 ± 0.1%

For quick reference, copied from above:
Compound | test | system | setting | scale | measurement | value
CCCC[C@H](NC(=O)COCCOCCNC(=O)CN1CCN(CC(=O)O)CCN(CC(=O)O)CC1)C(=O)N[C@H]1CC(=O)NCCCC[C@@H](C(N)=O)NC(=O)[C@H](Cc2c[nH]c3ccccc23)NC(=O)[C@H](CCCNC(=N)N)NC(=O)[C@@H](Cc2ccccc2)NC(=O)[C@H](Cc2c[nH]cn2)NC1=O [fluorine-18 labelled] |  | C57 mice, B16/F10 melanoma, urine | intravenous, 0.37 MBq, 2 h |  | urinary excretion | 83.4 ± 2.37%
Cc1n[nH]c(C)c1CCCOc1cc(C(=O)NCCCCC(NC(=O)CN2CCN(CC(=O)[O-])CCN(CC(=O)[O-])CCN(CC(=O)[O-])CC2)C(=O)NCC2CCC(C(=O)NC(Cc3ccc4ccccc4c3)C(=O)NCCCCC(NC(=O)NC(CCC(=O)O)C(=O)O)C(=O)O)CC2)ccc1F.[68Ga+3] (centres unmarked) | PET/CT | mice with PC-3 tumours | 2 h post-injection |  | tumour uptake | 3.17 ± 0.82 %ID/g
CCCCN1C(=O)c2cccc3c(NCCCCCCN4CCOCC4)ccc(c23)C1=O |  | dichloromethane |  |  | fluorescence lifetime | 10.6 ns
[123I]c1ccc2nc(-c3ccc(-n4ccnn4)nc3)cn2c1 |  | male Wistar rat, bone | intravenous, 4 MBq, 1 h |  | tracer uptake | 0.065 %ID/g
